Measurements gathered from unrelated publications.
Protocols differ between the studies behind these lines.
U2AF2: U2AF2 148-342 (Homo sapiens, UniProt P26368)
Sequence of UniProt P26368 (whole entry, looked up): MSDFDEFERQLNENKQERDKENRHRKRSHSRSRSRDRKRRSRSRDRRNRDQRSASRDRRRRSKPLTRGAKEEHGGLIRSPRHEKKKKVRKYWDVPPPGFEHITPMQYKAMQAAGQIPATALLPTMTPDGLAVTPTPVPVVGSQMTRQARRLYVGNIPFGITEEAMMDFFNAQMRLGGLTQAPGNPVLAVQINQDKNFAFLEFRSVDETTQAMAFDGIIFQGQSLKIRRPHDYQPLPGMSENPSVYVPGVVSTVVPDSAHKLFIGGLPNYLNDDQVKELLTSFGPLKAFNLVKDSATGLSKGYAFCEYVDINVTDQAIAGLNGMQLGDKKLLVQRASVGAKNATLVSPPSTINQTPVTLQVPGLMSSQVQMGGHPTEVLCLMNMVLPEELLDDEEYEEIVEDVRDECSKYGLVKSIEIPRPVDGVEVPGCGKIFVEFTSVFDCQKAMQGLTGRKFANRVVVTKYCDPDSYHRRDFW
B1: spo0J K255A (Bacillus subtilis, UniProt P26497); chain MAKGLGKGINALFNQVDLSEETVEEIKIADLRPNPYQPRKHFDDEALAELKESVLQHGILQPLIVRKSLKGYDIVAGERRFRAAKLAGLDTVPAIVRELSEALMREIALLENLQREDLSPLEEAQAYDSLLKHLDLTQEQLAKRLGKSRPHIANHLRLLTLPENIQQLIAEGTLSMGHGRTLLGLKNKNKLEPLVQKVIAEQLNVRQLEQLIQQLNQNVPRETKKKEPVKDAVLKERESYLQNYFGTTVNIKRQAKKGKIEIEFFSNEDLDRILELLSERES
B2: TSPAN8 (Homo sapiens, UniProt P19075); sequence looked up; chain MAGVSACIKYSMFTFNFLFWLCGILILALAIWVRVSNDSQAIFGSEDVGSSSYVAVDILIAVGAIIMILGFLGCCGAIKESRCMLLLFFIGLLLILLLQVATGILGAVFKSKSDRIVNETLYENTKLLSATGESEKQFQEAIIVFQEEFKCCGLVNGAADWGNNFQHYPELCACLDKQRPCQSYNGKQVYKETCISFIKDFLAKNLIIVIGISFGLAVIEILGLVFSMVLYCQIGNK
B3: protein (Schizosaccharomyces pombe, UniProt O74876); sequence looked up; chain MSEEDNRLNELFANDLGVQPPCERSLKEGRRFLNDFEIAAKKKLLELERKALEDKEKNLNFVVESERTLFNSKKRAFDNDECYNDRCKLFRGIVNEWGRSERTLDSLDEPPAWFRREMGEWKKAREEDKAEWKKAREEDKAEWKKAREEDKAEWKKAREEDKAEWKKAREEDKAEWKKAREEDKEWRNSMDEWRKSMDEWRKSMDEWRKSMDEWRKSTDEWRKSTDERLENLLNIVREILDVQRDMRNDLSNLTRKVDRMDMRLSRNNNMIMRSFAQPITEVPFFNGDIPDPNLPRITRIEDIDSLSEENCTRYLKGYGVSYDENDQSLWKRQLAKAVGLTAAYDESYTFSPFSSSE
B4: zwf 1-509 (Synechocystis sp. PCC 6803, UniProt P73411); chain MVTLLENPFRTGLRQERTPEPLILTIFGASGDLTQRKLVPAIYQMKRERRLPPELTVVGFARRDWSHDHFREQMRKGIEEFSTGIGSEDLWNEFAQGLFYCSGNMDDPESYLKLKNFLGELDEKRNTRGNRVFYLAVSPNFFPPGIKQLGAAGMLSDPVKSRIVIEKPFGRDLSSAQSLNRVVQSVCKENQVYRIDHYLGKETVQNLMVFRFANAIFEPLWNRQFVDHVQITVAETVGVEERAGYYESAGALRDMVQNHLMQLFCLTAMDPPNAIDADSIRNEKVKVLQATRLADINNLENAGIRGQYKAGWMGGKPVPGYREEPGVDPSSTTPTFAALKLMVDNWRWQGVPFYLRTGKRMPKKVSEIAIQFRQVPLLIFQSVAHQANPNVLSLRIQPNEGISLRFEAKMPGSELRTRTVDMDFSYGSSFGVAAADAYHRLLLDCMLGDQTLFTRADEVEEAWRVVTPVLSAWDAPSDPLSMPLYEAGTWEPAEAEWLINKDGRRWRRL
B5: ABCG25 1-662 (Arabidopsis thaliana, UniProt Q84TH5); chain MSAFDGVENQMNGPDSSPRLSQDPREPRSLLSSSCFPITLKFVDVCYRVKIHGMSNDSCNIKKLLGLKQKPSDETRSTEERTILSGVTGMISPGEFMAVLGPSGSGKSTLLNAVAGRLHGSNLTGKILINDGKITKQTLKRTGFVAQDDLLYPHLTVRETLVFVALLRLPRSLTRDVKLRAAESVISELGLTKCENTVVGNTFIRGISGGERKRVSIAHELLINPSLLVLDEPTSGLDATAALRLVQTLAGLAHGKGKTVVTSIHQPSSRVFQMFDTVLLLSEGKCLFVGKGRDAMAYFESVGFSPAFPMNPADFLLDLANGVCQTDGVTEREKPNVRQTLVTAYDTLLAPQVKTCIEVSHFPQDNARFVKTRVNGGGITTCIATWFSQLCILLHRLLKERRHESFDLLRIFQVVAASILCGLMWWHSDYRDVHDRLGLLFFISIFWGVLPSFNAVFTFPQERAIFTRERASGMYTLSSYFMAHVLGSLSMELVLPASFLTFTYWMVYLRPGIVPFLLTLSVLLLYVLASQGLGLALGAAIMDAKKASTIVTVTMLAFVLTGGYYVNKVPSGMVWMKYVSTTFYCYRLLVAIQYGSGEEILRMLGCDSKGKQGASAATSAGCRFVEEEVIGDVGMWTSVGVLFLMFFGYRVLAYLALRRIKH
B6: unc-83 1-305 (Caenorhabditis elegans, UniProt Q23064); sequence looked up; chain MDVMDSFSEVEMPNDISSEDHLLKVIESSAEEVDIFLENCSSLYNLILDSLHNLTSKTISCECLDEMTSTLEKSAKKILAERPEAENSVLLRLNTICCAMDQLRVQHNSRMMSGADSDTASSARSSTSSSTGEMRLWLHEVERRLEINEKRIRVEPNLQLLLSDQQALQLEIQHEGQLLVNRLNKQIKDDHDSDSSEEEKRKTCVDAIRKRWHTIYLNSLSLVCRIEELINHQQASEDSESDPDLVGPPIKRARIRTVGHLTASDTEESEADEEDRHSQTETVVTEDDNVLPFAENEYESIMDGR
B7: ACAT1 35-427 Y407F (Homo sapiens, UniProt P24752); chain SKPTLKEVVIVSATRTPIGSFLGSLSLLPATKLGSIAIQGAIEKAGIPKEEVKEAYMGNVLQGGEGQAPTRQAVLGAGLPISTPCTTINKVCASGMKAIMMASQSLMCGHQDVMVAGGMESMSNVPYVMNRGSTPYGGVKLEDLIVKDGLTDVYNKIHMGSCAENTAKKLNIARNEQDAYAINSYTRSKAAWEAGKFGNEVIPVTVTVKGQPDVVVKEDEEYKRVDFSKVPKLKTVFQKENGTVTAANASTLNDGAAALVLMTADAAKRLNVTPLARIVAFADAAVEPIDFPIAPVYAASMVLKDVGLKKEDIAMWEVNEAFSLVVLANIKMLEIDPQKVNINGGAVSLGHPIGMSGARIVGHLTHALKQGEFGLASICNGGGGASAMLIQKL
B8: ldh 1-316 (Geobacillus stearothermophilus, UniProt P00344); chain MKNNGGARVVVIGAGFVGASYVFALMNQGIADEIVLIDANESKAIGDAMDFNHGKVFAPKPVDIWHGDYDDCRDADLVVICAGANQKPGETRLDLVDKNIAIFRSIVESVMASGFQGLFLVATNPVDILTYATWKFSGLPHERVIGSGTILDTARFRFLLGEYFSVAPQNVHAYIIGEHGDTELPVWSQAYIGVMPIRKLVESKGEEAQKDLERIFVNVRDAAYQIIEKKGATYYGIAMGLARVTRAILHNENAILTVSAYLDGLYGERDVYIGVPAVINRNGIREVIEIELNDDEKNRFHHSAATLKSVLARAFT
B9: Ikbkg 1-355 C54S/K285N (Mus musculus, UniProt O88522); sequence looked up; chain MNKHPWKNQLSEMVQPSGGPAEDQDMLGEESSLGKPAMLHLPSEQGTPETLQRSLEENQELRDAIRQSNQMLRERCEELLHFQVSQREEKEFLMCKFQEARKLVERLSLEKLDLRSQREQALKELEQLKKCQQQMAEDKASVKAQVTSLLGELQESQSRLEAATKDRQALEGRIRAVSEQVRQLESEREVLQQQHSVQVDQLRMQNQSVEAALRMERQAASEEKRKLAQLQAAYHQLFQDYDSHIKSSKGMQLEDLRQQLQQAEEALVAKQELIDKLKEEAEQHNIVMETVPVLKAQADIYKADFQAERHAREKLVEKKEYLQEQLEQLQREFNKLKVGCHESARIEDMRKRHVE
B10: groES (Escherichia coli, UniProt P0A6F9); chain MNIRPLHDRVIVKRKEVETKSAGGIVLTGSAAAKSTRGEVLAVGNGRILENGEVKPLDVKVGDIVIFNDGYGVKSEKIDNEEVLIMSESDILAIVEA
B11: rga8 1-420 (Schizosaccharomyces pombe, UniProt Q09697); sequence looked up; chain MISSFSNGFWSKDYATGVKKLFDCLDNGVEENEQVKNLLKLYKEANEEFGEKLQEITKECLKGKKPENTEDGATSNKAFEGLRSEIANQGKQHIRIAKDLETLIIAPFSKMSIDHSQKLQTSQQVLTNQIKSYEKKYYTLKKTKSAYYNKCRNLEDYEEESKESNETTSEAITDLTTVSSPQQQSLLENDDDLIQLGFMEFRPEELKEVLAQVLQEIPLQDYRVPILGTYPNTCSGNIIVSWLQENLPVPTLVAAEAFGQDLIAQGFLRHMGVGGSFVNSTNFHYQWKDKAFQFAGLNSVDSLVENAKALPLVGEYLSDYISHRKLYSSETQSQRLKREVLDANKIYSESVVDLDKCRTLVEETIADHLQFLQKCETDRVLYYKDFFMDLSTIISNFLPSMKLLADQIVVYQEIIQPESD
B12: cfbA 1-143 S11A (Methanocaldococcus jannaschii, UniProt Q58380); chain MEALVLVGHGARLPYSKELLVKLAEKVKERNLFPIVEIGLMEFSEPTIPQAVKKAIEQGAKRIIVVPVFLAHGIHTTRDIPRLLGLIEDNHEHHHEHSHHHHHHHHHEHEKLEIPEDVEIIYREPIGADDRIVDIIIDRAFGR
B13: RICE2 (Arabidopsis thaliana, UniProt Q9FNG3); sequence looked up; chain MASFDGPKFKMTDGSYVQTKTIDVGSSTDISPYLSLIREDSILNGNRAVIFDVYWDVGFPETETKTKTSGWSLSSVKLSTRNLCLFLRLPKPFHDNLKDLYRFFASKFVTFVGVQIEEDLDLLRENHGLVIRNAINVGKLAAEARGTLVLEFLGTRELAHRVLWSDLGQLDSIEAKWEKAGPEEQLEAAAIEGWLIVNVWDQLSDE
B14: GGPS1 R235C (Homo sapiens, UniProt O95749); sequence looked up; chain MEKTQETVQRILLEPYKYLLQLPGKQVRTKLSQAFNHWLKVPEDKLQIIIEVTEMLHNASLLIDDIEDNSKLRRGFPVAHSIYGIPSVINSANYVYFLGLEKVLTLDHPDAVKLFTRQLLELHQGQGLDIYWRDNYTCPTEEEYKAMVLQKTGGLFGLAVGLMQLFSDYKEDLKPLLNTLGLFFQIRDDYANLHSKEYSENKSFCEDLTEGKFSFPTIHAIWSRPESTQVQNILCQRTENIDIKKYCVHYLEDVGSFEYTRNTLKELEAKAYKQIDARGGNPELVALVKHLSKMFKEENE
Sequence of UniProt Q9T074 (whole entry, looked up): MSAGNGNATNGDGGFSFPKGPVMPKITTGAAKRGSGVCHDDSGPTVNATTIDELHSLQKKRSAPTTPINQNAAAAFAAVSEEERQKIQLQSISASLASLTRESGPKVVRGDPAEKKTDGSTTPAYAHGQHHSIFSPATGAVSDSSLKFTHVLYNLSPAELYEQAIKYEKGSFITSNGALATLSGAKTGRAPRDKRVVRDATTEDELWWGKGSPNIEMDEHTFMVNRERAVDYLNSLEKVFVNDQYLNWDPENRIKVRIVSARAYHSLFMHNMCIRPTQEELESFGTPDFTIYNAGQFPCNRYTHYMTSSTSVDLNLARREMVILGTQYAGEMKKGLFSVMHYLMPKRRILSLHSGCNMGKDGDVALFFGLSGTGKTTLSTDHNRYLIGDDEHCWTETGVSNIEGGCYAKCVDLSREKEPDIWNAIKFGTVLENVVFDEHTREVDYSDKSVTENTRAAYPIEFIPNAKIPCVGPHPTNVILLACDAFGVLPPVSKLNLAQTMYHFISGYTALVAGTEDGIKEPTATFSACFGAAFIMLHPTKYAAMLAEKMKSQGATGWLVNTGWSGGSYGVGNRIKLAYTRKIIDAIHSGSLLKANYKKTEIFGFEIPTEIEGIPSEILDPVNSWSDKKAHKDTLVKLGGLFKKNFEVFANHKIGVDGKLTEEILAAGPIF

Under “subunits per oligomer”, `B1 (spo0J K255A)` is recorded as 2 (itself; SEC-MALS).
`B2 (TSPAN8)`: “subunits per oligomer” 2 (itself; fluorescence intensity fluctuation spectrometry; HEK293T; in cells).
`B3 (protein)`: “subunits per oligomer” 4 (itself; mass photometry).
`B4 (zwf 1-509)` — result for “subunits per oligomer”: 3 (itself; cryo-EM).
For `GGUGUUGUA (ssRNA)`, the Kd was 3620 nM (U2AF2; sequencing of bound RNA; RNA; motif only).
Under “subunits per oligomer”, `B5 (ABCG25 1-662)` is recorded as 2 (itself; cryo-EM).
`MKGMSKMPAFALAWPREVLDLVRKVAEENGRSVNSEIYQRVMESFKKEGRIGA (Arc repressor 1-53 Q9A/N11A/R13A (P22 phage, UniProt P03050))` — result for “subunits per oligomer”: 2 (itself; SEC).
Under “subunits per oligomer”, `B6 (unc-83 1-305)` is recorded as 2 (itself; mass photometry).
`B7 (ACAT1 35-427 Y407F)` — result for “subunits per oligomer”: 4 (itself; cross-linking; Y407F mutant).
For `B8 (ldh 1-316)`, “subunits per oligomer” read 4 (itself; AUC; 20 °C).
`B9 (Ikbkg 1-355 C54S/K285N)`: “subunits per oligomer” 4 (itself; AUC).
`B10 (groES)`: “subunits per oligomer” 7 (itself; cryo-EM).
`B11 (rga8 1-420)`: “subunits per oligomer” 2 (itself; cross-linking).
`GGUCUUAAC (ssRNA)` has a Kd of 1400 nM (U2AF2; sequencing of bound RNA; RNA; motif only).
Under “subunits per oligomer”, `B12 (cfbA 1-143 S11A)` is recorded as 2 (itself; SEC).
`B13 (RICE2)` — result for “subunits per oligomer”: 6 (itself; SEC).
Under “subunits per oligomer”, `B14 (GGPS1 R235C)` is recorded as 6 (itself; SEC-MALS).
Under “subunits per oligomer”, `PCK1 (Arabidopsis thaliana, UniProt Q9T074)` is recorded as 6 (itself; SEC).

Some of these lines once more:
For `B8 (ldh 1-316)`, “subunits per oligomer” read 4 (itself; AUC; 20 °C).
`B3 (protein)`: “subunits per oligomer” 4 (itself; mass photometry).
Under “subunits per oligomer”, `B5 (ABCG25 1-662)` is recorded as 2 (itself; cryo-EM).
